Published values collected from several papers.
Each line is one published result; not all experiments were run side by side. ± marks the error that the study gave.
Method: steady-state kinetics
B1: ltaE H126F/H83F (Escherichia coli, UniProt P75823); chain MIDLRSDTVTRPSRAMLEAMMAAPVGDDVYGDDPTVNALQDYAAELSGKEAAIFLPTGTQANLVALLSHCERGEEYIVGQAAFNYLFEAGGAAVLGSIQPQPIDAAADGTLPLDKVAMKIKPDDIFFARTKLLSLENTHNGKVLPREYLKEAWEFTRERNLALHVDGARIFNAVVAYGCELKEITQYCDSFTICLSKGLGTPVGSLLVGNRDYIKRAIRWRKMTGGGMRQSGILAAAGIYALKNNVARLQEDHDNAAWMAEQLREAGADVMRQDTNMLFVRVGEENAAALGEYMKARNVLINASPIVRLVTHLDVSREQLAEVAAHWRAFLAR
B2: vioC (Streptomyces vinaceus, UniProt Q6WZB0); chain MTESPTTHHGAAPPDSVATPVRPWSEFRLTPAEAAAAAALAARCAQRYDETDGPEFLLDAPVIAHELPRRLRTFMARARLDAWPHALVVRGNPVDDAALGSTPVHWRTARTPGSRPLSFLLMLYAGLLGDVFGWATQQDGRVVTDVLPIKGGEHTLVSSSSRQELGWHTEDAFSPYRADYVGLLSLRNPDGVATTLAGVPLDDLDERTLDVLFQERFLIRPDDSHLQVNNSTAQQGRVEFEGIAQAADRPEPVAILTGHRAAPHLRVDGDFSAPAEGDEEAAAALGTLRKLIDASLYELVLDQGDVAFIDNRRAVHGRRAFQPRYDGRDRWLKRINITRDLHRSRKAWAGDSRVLGQR
B3: alanine racemase H125A (Geobacillus stearothermophilus, UniProt P10724); chain MNDFHRDTWAEVDLDAIYDNVENLRRLLPDDTHIMAVVKANAYGHGDVQVARTALEAGASRLAVAFLDEALALREKGIEAPILVLGASRPADAALAAQQRIALTVFRSDWLEEASALYSGPFPIAFHLKMDTGMGRLGVKDEEETKRIVALIERHPHFVLEGLYTHFATADEVNTDYFSYQYTRFLHMLEWLPSRPPLVHCANSAASLRFPDRTFNMVRFGIAMYGLAPSPGIKPLLPYPLKEAFSLHSRLVHVKKLQPGEKVSYGATYTAQTEEWIGTIPIGYADGWLRRLQHFHVLVDGQKAPIVGRICMDQCMIRLPGPLPVGTKVTLIGRQGDEVISIDDVARHLETINYEVPCTISYRVPRIFFRHKRIMEVRNAIGRGESSA
B4: HCT R356D (Coleus scutellarioides, UniProt E8ZAP2); chain MKIHVRDSTLVRPSAATPAVSLWNSNVDLVVPNFHTPSVYFYRPSGADNFFDTAVMKAALGRALVSFYPMAGRLKRDEDGRVEIDCNAEGVLFVEAESDGTVDDYGDFAPSLELRRLIPAVDYSQGISAYPLLVLQVTFFKCGGVSLGVGMQHHAADGFSGLHFINTWSDMARGLDITLPPFIDRTLLSARDPPQPQFKHVEYQPPPAMKTYEPAETVVSIFKLTKDQLTTLKAKSKEDGNTTTYSSYEMLSGHVWRCTCLARGLPEEQETKLYIATDGRSRLQPQLPPGYFGNVIFTATPLAVAGDLGSKPVWYAASKIHDALARMDNDYLRSALDFLELQPDLKALVRGAHTFDCPNLGITSWVRLPIHDADFGWGRPIFMGPGGIAYEGLSFVLPSPTNDGSLSVAISLQAEHMKLFEKLLYQI
B5: PRP43 F357A (Saccharomyces cerevisiae, UniProt P53131); chain MGSKRRFSSEHPDPVETSIPEQAAEIAEELSKQHPLPSEEPLVHHDAGEFKGLQRHHTSAEEAQKLEDGKINPFTGREFTPKYVDILKIRRELPVHAQRDEFLKLYQNNQIMVFVGETGSGKTTQIPQFVLFDEMPHLENTQVACTQPRRVAAMSVAQRVAEEMDVKLGEEVGYSIRFENKTSNKTILKYMTDGMLLREAMEDHDLSRYSCIILDEAHERTLATDILMGLLKQVVKRRPDLKIIIMSATLDAEKFQRYFNDAPLLAVPGRTYPVELYYTPEFQRDYLDSAIRTVLQIHATEEAGDILLFLTGEDEIEDAVRKISLEGDQLVREEGCGPLSVYPLYGSLPPHQQQRIAEPAPESHNGRPGRKVVISTNIAETSLTIDGIVYVVDPGFSKQKVYNPRIRVESLLVSPISKASAQQRAGRAGRTRPGKCFRLYTEEAFQKELIEQSYPEILRSNLSSTVLELKKLGIDDLVHFDFMDPPAPETMMRALEELNYLACLDDEGNLTPLGRLASQFPLDPMLAVMLIGSFEFQCSQEILTIVAMLSVPNVFIRPTKDKKRADDAKNIFAHPDGDHITLLNVYHAFKSDEAYEYGIHKWCRDHYLNYRSLSAADNIRSQLERLMNRYNLELNTTDYESPKYFDNIRKALASGFFMQVAKKRSGAKGYITVKDNQDVLIHPSTVLGHDAEWVIYNEFVLTSKNYIRTVTSVRPEWLIEIAPAYYDLSNFQKGDVKLSLERIKEKVDRLNELKQGKNKKKSKHSKK
B6: SULT1A1 I89A (Homo sapiens, UniProt P50225); chain MELIQDTSRPPLEYVKGVPLIKYFAEALGPLQSFQARPDDLLISTYPKSGTTWVSQILDMIYQGGDLEKCHRAPIFMRVPFLEFKAPGAPSGMETLKDTPAPRLLKTHLPLALLPQTLLDQKVKVVYVARNAKDVAVSYYHFYHMAKVHPEPGTWDSFLEKFMVGEVSYGSWYQHVQEWWELSRTHPVLYLFYEDMKENPKREIQKILEFVGRSLPEETVDFVVQHTSFKEMKKNPMTNYTTVPQEFMDHSISPFMRKGMAGDWKTTFTVAQNERFDADYAEKMAGCSLSFRSEL
B7: GTPBP3 E142K/R136E (Homo sapiens, UniProt Q969Y2); chain TRRSSGAPAPGSGATIFALSSGQGRCGIAVIRTSGPASGHALRILTAPRDLPLARHASLRLLSDPRSGEPLDRALVLWFPGPQSFTGEDCVEFHVHGGPAVVSGVLQALGSVPGLEPAEAGKFTRRAFANGKLNLTEVEGLADLIHAETEAQRRQALRQLDGELGHLCRGWAETLTKALAHVEAYIDFGEDDNLEEGVLEQADIEVRALQVALGAHLRDARRGQRLRSGVHVVVTGPPNAGKSSLVNLLSRKPVSIVSPEPGTTRDVLETPVDLAGFPVLLSDTAGLREGVGPVEQEGVRRARERLEQADLILAMLDASDLASPSSCNFLATVVASVGAQSPSDSSQRLLLVLNKSDLLSPEGPGPGPDLPPHLLLSCLTGEGLDGLLEALRKELAAVCGDPSTDPPLLTRARHQHHLQGCLDALGHYKQSKDLALAAEALRVARGHLTRLTGGGGTEEILDIIFQDFCVGK
B8: SULT2A1 (Homo sapiens, UniProt Q06520); chain MSDDFLWFEGIAFPTMGFRSETLRKVRDEFVIRDEDVIILTYPKSGTNWLAEILCLMHSKGDAKWIQSVPIWERSPWVESEIGYTALSETESPRLFSSHLPIQLFPKSFFSSKAKVIYLMRNPRDVLVSGYFFWKNMKFIKKPKSWEEYFEWFCQGTVLYGSWFDHIHGWMPMREEKNFLLLSYEELKQDTGRTIEKICQFLGKTLEPEELNLILKNSSFQSMKENKMSNYSLLSVDYVVDKAQLLRKGVSGDWKNHFTVAQAEDFDKLFQEKMADLPRELFPWE
B9: Paox (Mus musculus, UniProt Q8C0L6); chain MAFPGPRVLVVGSGIAGLGAAQKLCSHRAAPHLRVLEATASAGGRIRSERCFGGVVELGAHWIHGPSQDNPVFQLAAEFGLLGEKELSEENQLVDTGGHVALPSMIWSSSGTSVSLELMTEMARLFYGLIERTREFLNESETPMASVGEFLKKEISQQVASWTEDDEDTRKRKLAILNTFFNIECCVSGTHSMDLVALAPFGEYTVLPGLDCILAGGYQGLTDRILASLPKDTVAFDKPVKTIHWNGSFQEAAFPGETFPVLVECEDGARLPAHHVIVTVPLGFLKEHQDTFFEPPLPAKKAEAIKKLGFGTNNKIFLEFEEPFWEPDCQFIQVVWEDTSPLQDTALSLQDTWFKKLIGFLVQPSFESSHVLCGFIAGLESEFMETLSDEEVLLSLTQVLRRVTGNPQLPAAKSVRRSQWHSAPYTRGSYSYVAVGSTGDDLDLMAQPLPEDGTGTQLQVLFAGEATHRTFYSTTHGALLSGWREADRLVSLWDSQVEQSRPRL
B10: cyc1 F96Y (Streptomyces coelicolor, UniProt Q9K499); chain MHAFPHGTTATPTAIAVPPSLRLPVIEAAFPRQLHPYWPKLQETTRTWLLEKRLMPADKVEEYADGLCYTDLMAGYYLGAPDEVLQAIADYSAWFYVWDDRHDRDIVHGRAGAWRRLRGLLHTALDSPGDHLHHEDTLVAGFADSVRRLYAFLPATWNARFARHFHTVIEAYDREFHNRTRGIVPGVEEYLELRRLTFAHWIWTDLLEPSSGCELPDAVRKHPAYRRAALLSQEFAAWYNDLCSLPKEIAGDEVHNLGISLITHHSLTLEEAIGEVRRRVEECITEFLAVERDALRFADELADGTVRGKELSGAVRANVGNMRNWFSSVYWFHHESGRYMVDSWDDRSTPPYVNNEAAGEK
B11: Tcur_2987 W263F/W376F (Thermomonospora curvata, UniProt D1A807); chain ACSEERAAGARPSATQTTGTATEPFHGPHQAGIATPPQAHAVFLGLDLRKGTGRKELGRLMRLLTDDARRLTQGRPALADPEPDLAPLPSRLTFTFGFGPGLFKAAGLEKQRPEGLRPLPPFKVDRLEDRWSGGDLLVQICCDDPITLAHALRMTVKDARAFTRVRWVQRGFRRSPGVQSSGATQRNLMGQLDGTVNPVPGTADFDQAVWVQDGPEWLRGGTTLVLRRIRMELEKFDEADPAGKEFAVGRRLTSGAPLTGRHEHDEPDFDAVDSAGFPVIAENAHIRLAHVDSPRLRMLRRPYNYDEGLTADGRSDAGLLFAAYQADIDRQFIPVQRRLDEGGDLLNLFTTPIGSAVFAIPPGCDENGWIGQGLLG
B12: ycjS (Escherichia coli, UniProt P77503); chain MKSAMTSSPLRVAIIGAGQVADKVHASYYCTRNDLELVAVCDSRLSQAQALAEKYGNASVWDDPQAMLLAVKPDVVSVCSPNRFHYEHTLMALEAGCHVMCEKPPAMTPEQAREMCDTARKLGKVLAYDFHHRFALDTQQLREQVTNGVLGEIYVTTARALRRCGVPGWGVFTNKELQGGGPLIDIGIHMLDAAMYVLGFPAVKSVNAHSFQKIGTQKSCGQFGEWDPATYSVEDSLFGTIEFHNGGILWLETSFALNIREQSIMNVSFCGDKAGATLFPAHIYTDNNGELMTLMQREIADDNRHLRSMEAFINHVQGKPVMIADAEQGYIIQQLVAALYQSAETGTRVEL
UniProt Q8KN33, sequence (whole entry, looked up): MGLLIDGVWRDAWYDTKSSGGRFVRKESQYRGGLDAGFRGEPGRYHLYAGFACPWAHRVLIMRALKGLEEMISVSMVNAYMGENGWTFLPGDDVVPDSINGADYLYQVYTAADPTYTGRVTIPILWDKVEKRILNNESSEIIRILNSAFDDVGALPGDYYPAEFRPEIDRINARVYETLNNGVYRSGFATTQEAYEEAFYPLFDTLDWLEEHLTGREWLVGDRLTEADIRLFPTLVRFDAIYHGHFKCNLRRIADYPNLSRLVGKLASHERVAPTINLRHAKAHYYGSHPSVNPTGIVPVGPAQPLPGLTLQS
UniProt P07914, sequence (whole entry, looked up): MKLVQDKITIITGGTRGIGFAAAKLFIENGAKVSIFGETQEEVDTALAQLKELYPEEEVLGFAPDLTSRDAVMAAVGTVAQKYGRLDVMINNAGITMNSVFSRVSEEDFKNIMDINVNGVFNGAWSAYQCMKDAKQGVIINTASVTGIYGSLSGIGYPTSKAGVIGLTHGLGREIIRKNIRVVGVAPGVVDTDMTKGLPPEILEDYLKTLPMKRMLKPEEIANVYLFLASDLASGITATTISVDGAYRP

B1 (ltaE H126F/H83F)  kcat/Km (C[C@H](O)[C@H](N)C(=O)O; pH 7, 30 °C, potassium phosphate 20 mM, retro-aldol cleavage, added: PLP 500 µM): 3.83 M⁻¹ s⁻¹
B2 (vioC)  kcat/Km (N=C(N)NOCC[C@H](N)C(=O)O; pH 8, 30 °C, added: alpha-ketoglutarate 1.0 mM): 1060 ± 283 M⁻¹ s⁻¹
B3 (alanine racemase H125A)  kcat/Km (C[C@@H](N)C(=O)O; pH 9, room temperature, added: NAD+ 10 mM): 820000 M⁻¹ s⁻¹
B4 (HCT R356D)  kcat/Km (NCc1ccc(O)c(O)c1; pH 8, pseudo-first-order, added: p-coumaroyl CoA): 769 ± 41.5 M⁻¹ s⁻¹
B5 (PRP43 F357A)  kcat/Km (Nc1ccn([C@@H]2O[C@H](COP(=O)(O)OP(=O)(O)OP(=O)(O)O)[C@@H](O)[C@H]2O)c(=O)n1; pH 8, KCl 100 mM, without Pfa1, added: polyA 0.2 mM, magnesium acetate 2.5 mM): 73200 ± 7200 M⁻¹ s⁻¹
B6 (SULT1A1 I89A)  kcat/Km (C[C@]12CC[C@@H]3c4ccc(O)cc4CC[C@H]3[C@@H]1CC[C@@H]2O; pH 7.2, 25 °C, added: PAPS 0.060–1.5 µM): 750000 M⁻¹ s⁻¹
BaiA1 (Clostridium scindens, UniProt P07914)  kcat/Km (C[C@H](CCC(=O)SCCNC(=O)CCNC(=O)[C@H](O)C(C)(C)COP(=O)(O)OP(=O)(O)OC[C@H]1O[C@@H](n2cnc3c(N)ncnc32)[C@H](O)[C@@H]1OP(=O)(O)O)[C@H]1CC[C@H]2[C@@H]3CC[C@@H]4CC(=O)CC[C@]4(C)[C@H]3C[C@H](O)[C@]12C; pH 8.7, 37 °C, added: NADH): 131000 M⁻¹ s⁻¹
B7 (GTPBP3 E142K/R136E)  kcat/Km (Nc1nc2c(ncn2[C@@H]2O[C@H](COP(=O)(O)OP(=O)(O)OP(=O)(O)O)[C@@H](O)[C@H]2O)c(=O)[nH]1; pH 8, 37 °C, KCl 300 mM): 574 M⁻¹ s⁻¹
B8 (SULT2A1)  kcat/Km (C[C@]12CC[C@H](O)CC1=CC[C@@H]1[C@@H]2CC[C@]2(C)C(=O)CC[C@@H]12; pH 7.4, 25 °C): 540000 M⁻¹ s⁻¹
B9 (Paox)  kcat/Km (c1ccc(CNCCCCNCc2ccccc2)cc1; pH 8.6, 30 °C): 33000 ± 2000 M⁻¹ s⁻¹
B10 (cyc1 F96Y)  kcat/Km (CC(C)=CCC/C(C)=C/CC/C(C)=C/CO[P@@](=O)(O)OP(=O)(O)O; pH 6.5, 30 °C, added: MgCl2 10 mM): 107 ± 2 M⁻¹ s⁻¹
pcpF (Sphingobium chlorophenolicum, UniProt Q8KN33)  kcat/Km (N[C@@H](CS)C(=O)O; pH 6.5, added: GS-TriCH, ascorbic acid 2 mM): 187 M⁻¹ s⁻¹
B11 (Tcur_2987 W263F/W376F)  kcat/Km (Nc1c(S(=O)(=O)O)cc(Nc2cccc(S(=O)(=O)CCOS(=O)(=O)O)c2)c2c1C(=O)c1ccccc1C2=O; pH 3, sigmoidal kinetics, added: H2O2 1 mM): 2.7e+06 M⁻¹ s⁻¹
B12 (ycjS)  kcat/Km (CO[C@@H]1O[C@H](CO)[C@@H](O)[C@H](O)[C@H]1O; pH 8, 30 °C, added: NAD+ 2.0 mM): 191 ± 9 M⁻¹ s⁻¹

Repeated from above:
B3 (alanine racemase H125A)  kcat/Km (C[C@@H](N)C(=O)O; pH 9, room temperature, added: NAD+ 10 mM): 820000 M⁻¹ s⁻¹
